# Published values of several laboratories.
# Each line is one published result; not all experiments were run side by side. Numbers after ± are the reported error.
Structure (SMILES),cell line,test,test system,setting,how to read,endpoint,result
Fc1ccc2nc(NCCCNCc3cc(Cl)cc(Cl)c3)[nH]c2n1,CRL-8155 and HepG2,cytotoxicity,,,,EC50,≥ 20 µM
c1ccc(-c2nc(-c3ccc4ccccc4c3)c[nH]2)cc1,MRC-5,"cytotoxicity, resazurin",,"7 days, 5% fetal calf serum",,EC50,20 µM
O=C(Cn1cc(C2CC(c3ccccc3)=NN2)nn1)Nc1nc(-c2ccccc2)cs1 (centres unmarked),WI-38,MTT,,"72 h, 100% viability, 10% FBS",,safe concentration,122 ± 11 nM
CN(C)c1cc(CNC2CCCC2)c(O)c2c1C[C@H]1C[C@H]3[C@H](N(C)C)C(O)=C(C(N)=O)C(=O)[C@@]3(O)C(O)=C1C2=O,CHO,"cytotoxicity, resazurin",,10% fetal calf serum,,TC50,> 100 µg/mL
Cc1c(C)c(C)[c-](C)c1C.[C-]#[O+].[C-]#[O+].[C-]#[O+].[Cl-].[Cl-].[Cl-].[Ir+3].[Re+].c1cnc(-c2ncccn2)nc1,MDA-MB-468,annexin V/PI,,"25 µM, 48 h",,viable cells,68.2%
COC1CCC2(C)C3=C(CCC2C1(C)C)C1(C)CCC(C(C)CCC=C(C)C)C1(C)CC3 (centres unmarked),SK-LU-1,"cell growth or viability, SRB",,50 µM,,inhibition,21.6%
CN1CCN(c2ccc(C(=O)Nc3n[nH]c4ccc(Cc5cc(F)cc(F)c5)cc34)c(NC3CCOCC3)c2)CC1,sheep erythrocytes,,,16 to 256 µg/mL,,haemolysis,< 9%
CCn1c(SC(C)C(=O)NCc2ccccc2)nnc1C1CCN(C(=O)Nc2ccccc2)CC1 (centres unmarked),human blood mononuclear cells,MTT,,"0.25 mM, 2 h, pH 7.4",,viability,79.7 ± 2.8%
O=C(O)CNc1nc(NNC(=O)c2ccc(Nc3nc(Nc4ccc(C(=O)NNc5nc(NCC(=O)O)nc(N6CCOCC6)n5)cc4)nc(Nc4ccc(C(=O)NNc5nc(NCC(=O)O)nc(N6CCOCC6)n5)cc4)n3)cc2)nc(N2CCOCC2)n1,WI-38 cells,"cell viability, MTT",,72 h,,maximum non-toxic concentration,1.9 ± 0.2 nM
O=C(NCCCNc1n[n+]([O-])c2ccccc2[n+]1[O-])C(F)(F)F,HCT-116,,,,baseline: normoxic IC50 over hypoxic IC50,hypoxic cytotoxicity ratio,1.4
CCn1c(SC(C)C(=O)Nc2ccccc2C)nnc1C1CCN(C(=O)Nc2ccccc2)CC1 (centres unmarked),human blood mononuclear cells,MTT,,"0.25 mM, 2 h, pH 7.4",,viability,76.6 ± 2.7%
CC(C)C[C@H](NC(=O)[C@H](C)NC(=O)[C@H](CCCCN)NC(=O)[C@H](C)NC(=O)[C@H](CCCNC(=N)N)NC(=O)[C@H](C)NC(=O)[C@H](CCC(N)=O)NC(=O)[C@H](CCCNC(=N)N)NC(=O)[C@H](C)NC(=O)[C@H](C)NC(=O)[C@H](C)NC(=O)[C@H](CCCNC(=N)N)NC(=O)[C@H](C)NC(=O)[C@H](Cc1ccc(O)cc1)NC(=O)CCNC(=S)Nc1ccc2c(c1)C(=O)OC21c2ccc(O)cc2Oc2cc(O)ccc21)C(=O)N[C@@H](C)C(=O)N[C@@H](CCCNC(=N)N)C(=O)N[C@@H](CCC(N)=O)C(=O)N[C@@H](CC(C)C)C(=O)NCC(=O)N[C@H](C(=O)N[C@@H](C)C(=O)N[C@@H](C)C(N)=O)C(C)C,mesothelial cells,flow cytometry,,"concentration not given, 1 h, with: 10 mM methyl-beta-cyclodextrin",,uptake,inhibited
O=C(O)CNc1nc(O)nc(NNC(=O)c2ccc(Nc3nc(Nc4ccc(C(=O)NNc5nc(O)nc(NCC(=O)O)n5)cc4)nc(Nc4ccc(C(=O)NNc5nc(O)nc(NCC(=O)O)n5)cc4)n3)cc2)n1,WI-38 cells,"cell viability, MTT",,72 h,,maximum non-toxic concentration,3 ± 0.1 nM
NS(=O)(=O)c1ccc(NC(=O)NN[C@@H]2O[C@H](CO)[C@@H](O)[C@H](O)[C@H]2O)cc1,rabbit erythrocytes,,,"4 µg/mL, 3 h",baseline: complete lysis,hemolysis,0%
CSCC(NC(=O)c1cc(Cl)ccc1Cl)C(=O)NC(O)CC(C)C (centres unmarked),beagle dog primary hepatocytes,UPLC-Q-TOF MS,,"3 µM of prodrug, 3 h",,detection,not detected
COc1ccc([C@@H]2CC(=O)c3c(O)cc(O[C@@H]4O[C@H](CO[C@@H]5O[C@@H](C)[C@H](O)[C@@H](O)[C@H]5O)[C@@H](O)[C@H](O)[C@H]4O)cc3O2)cc1O,MRC5,"cell growth or viability, MTS",,"150 µg/mL, 24 h",,viability,40.7%
O=C(O)CNc1nc(NNC(=O)c2ccc(Nc3nc(Nc4ccc(C(=O)NNc5nc(NCC(=O)O)nc(N6CCCCC6)n5)cc4)nc(Nc4ccc(C(=O)NNc5nc(NCC(=O)O)nc(N6CCCCC6)n5)cc4)n3)cc2)nc(N2CCCCC2)n1,WI-38 cells,"cell viability, MTT",,72 h,,maximum non-toxic concentration,1 ± 0.1 nM
COC(=O)COc1ccc(NC(=O)C2(c3ccc(Cl)c(Cl)c3)CC2)c(C)c1,U-937,LDH release,,"100 µM, 4 h",baseline: Triton X-100,cytotoxicity,-2%
CN(Cc1cc(N(C)C)c2c(c1O)C(=O)C1=C(O)[C@]3(O)C(=O)C(C(N)=O)=C(O)[C@@H](N(C)C)[C@@H]3C[C@@H]1C2)CC(C)(C)C,CHO,"cytotoxicity, resazurin",,10% fetal calf serum,,TC50,> 100 µg/mL
C=CC(C)(C)c1c(O)cc2c(c1O)C(=O)CC(c1ccccc1)O2 (centres unmarked),U-937,cytotoxicity,,24 h,,EC50,185 ± 16.2 µM
CCn1c(SC(C)C(=O)Nc2cc(C)ccc2C)nnc1C1CCN(C(=O)Nc2ccccc2)CC1 (centres unmarked),human blood mononuclear cells,MTT,,"0.25 mM, 2 h, pH 7.4",,viability,87.6 ± 2.9%
CC(=O)N[C@H](C(=O)N[C@H](C(=O)N[C@@H](CCCNC(=N)N)C(=O)N1Cc2ccccc2C[C@H]1C(=O)N[C@@H](Cc1ccccc1)C(N)=O)C1CCCCC1)C(C)C,human PBMC,"Bio-Plex multiplex, refers to: IL-9",,"500 µg/mL, 24 h",,cytokine level,12.3 ± 4.8 pg/mL
CCn1c(SC(C)C(=O)NC2CCCCC2)nnc1C1CCN(C(=O)Nc2ccccc2)CC1 (centres unmarked),human blood mononuclear cells,MTT,,"0.25 mM, 2 h, pH 7.4",,viability,83.8 ± 2.9%
COc1cccc2c1C(=O)c1c(O)c3c(c(O)c1C2=O)CC(O)(C(=O)CO)CC3OC1CC(NC(=O)C[C@H](N)C(=O)O)C(O)C(C)O1 (some centres unmarked),H1299 (LAT1-negative),HPLC,,"50 µg/mL, 2 h, serum-free medium",,cellular uptake,0.018 ± 0.0022 µg/mL
Nc1cccc[n+]1Cc1cccc(C[n+]2ccccc2N)c1,MRC-5,,,concentration not given,,cytotoxicity,not toxic
CCn1c(SC(C)C(=O)Nc2ccccc2)nnc1C1CCN(C(=O)Nc2ccccc2)CC1 (centres unmarked),human blood mononuclear cells,MTT,,"0.25 mM, 2 h, pH 7.4",,viability,82.2 ± 2.9%
Clc1cc(Cl)c2c(c1)[C@H](NCCCNc1nc3cccnc3[nH]1)CCO2,CRL-8155 and HepG2,cytotoxicity,,,,EC50,≥ 20 µM
COc1ccc([C@@H]2C3CCCN3[C@@]3(c4ccccc4-c4nc5ccccc5nc43)[C@H]2C(=O)c2nc3ccccc3[nH]2)cc1 (some centres unmarked),WI-38 lung fibroblasts,"cytotoxicity, MTT",medium with 10% FBS,"72 h, dose at 100% viability",,EC100,0.086 ± 0.003 µM
CCc1ccc(NC(=O)C(C)Sc2nnc(C3CCN(C(=O)Nc4ccccc4)CC3)n2CC)cc1 (centres unmarked),human blood mononuclear cells,MTT,,"0.25 mM, 2 h, pH 7.4",,viability,87.6 ± 2.6%
CN(C)c1cc(CNCc2ccccc2)c(O)c2c1C[C@H]1C[C@H]3[C@H](N(C)C)C(O)=C(C(N)=O)C(=O)[C@@]3(O)C(O)=C1C2=O,CHO,"cytotoxicity, resazurin",,10% fetal calf serum,,TC50,54 µg/mL
O=C(Cn1cccc([N+](=O)[O-])c1=O)c1c[nH]c2ccccc12,BRCA-proficient human cells,,,"100 µM, 72 h, pre-treatment",,clonogenic survival,toxic
Clc1cc(Cl)cc(CNCCCNc2nc3ncccc3[nH]2)c1,CRL-8155 and HepG2,cytotoxicity,,,,EC50,≥ 20 µM
CC(C)=CCC[C@@H](C)[C@@H]1CC[C@]2(C)C3=C(CC[C@@]12C)[C@@]1(C)CC[C@H](OC(=O)c2ccccc2)C(C)(C)[C@@H]1CC3,SK-LU-1,"cell growth or viability, SRB",,50 µM,,inhibition,10.9%
CC(=O)c1cccc(NC2C(N)C(NC(=O)N(C)C)(C(C)O)C(O)C2(O)COC(=O)c2c(C)cccc2O)c1 (centres unmarked),MRC-5,cytotoxicity,,free compound,,EC50,0.0065 µM
O=C(CNc1nc(O)nc(NNC(=O)c2ccc(Nc3nc(Nc4ccc(C(=O)NNc5nc(O)nc(NCC(=O)NO)n5)cc4)nc(Nc4ccc(C(=O)NNc5nc(O)nc(NCC(=O)NO)n5)cc4)n3)cc2)n1)NO,WI-38 cells,"cell viability, MTT",,72 h,,maximum non-toxic concentration,2.9 ± 0.2 nM
C=CCn1c(S)nnc1CSc1ccccc1[N+](=O)[O-],HCT-116,MTS,,"1.6 to 25 µM, 48 h",,cytotoxicity,not toxic
O=C(CNc1nc(Cl)nc(NNC(=O)c2ccc(Nc3nc(Nc4ccc(C(=O)NNc5nc(Cl)nc(NCC(=O)NO)n5)cc4)nc(Nc4ccc(C(=O)NNc5nc(Cl)nc(NCC(=O)NO)n5)cc4)n3)cc2)n1)NO,WI-38 cells,"cell viability, MTT",,72 h,,maximum non-toxic concentration,15.6 nM
Fc1ccc2[nH]c(NCCCNCc3cc(Cl)cc(Cl)c3)nc2c1,CRL-8155 and HepG2,cytotoxicity,,,,EC50,~10 µM
C[C@H](CCC1OC1(C)C)[C@@H]1CC[C@]2(C)C3=C(CC[C@@]12C)[C@@]1(C)CC[C@H](O)C(C)(C)[C@@H]1CC3 (some centres unmarked),SK-LU-1,"cell growth or viability, SRB",,50 µM,,inhibition,4.6%
Clc1cc(Cl)c2c(c1)[C@H](NCCCNc1nc3ncccc3[nH]1)CCN2,CRL-8155 and HepG2,cytotoxicity,,,,EC50,≥ 20 µM
Oc1cccc(-c2cccc(O)n2)n1.[Cl-].[Cl-].[Ru+2].c1cnc2c(c1)c1c(c3cccnc32)OCCO1.c1cnc2c(c1)c1c(c3cccnc32)OCCO1,MCF-10A,flow cytometry,,"50 µM, dark, with: deoxyglucose and oligomycin",baseline: no metabolic inhibition,cellular uptake,no effect

# A few entries again:
Structure (SMILES),cell line,test,test system,setting,how to read,endpoint,result
COc1cccc2c1C(=O)c1c(O)c3c(c(O)c1C2=O)CC(O)(C(=O)CO)CC3OC1CC(NC(=O)C[C@H](N)C(=O)O)C(O)C(C)O1 (some centres unmarked),H1299 (LAT1-negative),HPLC,,"50 µg/mL, 2 h, serum-free medium",,cellular uptake,0.018 ± 0.0022 µg/mL
C[C@H](CCC1OC1(C)C)[C@@H]1CC[C@]2(C)C3=C(CC[C@@]12C)[C@@]1(C)CC[C@H](O)C(C)(C)[C@@H]1CC3 (some centres unmarked),SK-LU-1,"cell growth or viability, SRB",,50 µM,,inhibition,4.6%
CN(C)c1cc(CNC2CCCC2)c(O)c2c1C[C@H]1C[C@H]3[C@H](N(C)C)C(O)=C(C(N)=O)C(=O)[C@@]3(O)C(O)=C1C2=O,CHO,"cytotoxicity, resazurin",,10% fetal calf serum,,TC50,> 100 µg/mL
